# Measurements of several laboratories.
# Parts stem from different laboratories: compare values within a part only.

# Sample 1 — method: protein binding microarray; molecule type: double-stranded DNA, one strand shown; sample: in vitro; concentration: not given; relative to: not given; direction: higher = stronger binding
# Target: Histone acetyltransferase KAT6A, winged helix 1, GST fusion (KAT6A, Homo sapiens, UniProt Q92794, residues 1-85)
# Setting: 8-mer, flanks averaged, mean of 2 arrays, mostly near background
# Target sequence (chain): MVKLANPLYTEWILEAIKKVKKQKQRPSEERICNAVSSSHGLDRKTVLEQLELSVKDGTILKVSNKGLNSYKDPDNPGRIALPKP
Oligonucleotide,E-score
TGATAACA,-0.139
TACCTCAA,-0.172
AACCTCAT,-0.154
AACACCCG,0.231
AGCTGTCA,-0.32
AGCTCAGA,-0.223
ACTACGCC,0.115
AGCGCTTC,0.335
AACTATAT,-0.0644
ATTGCAAC,-0.113
ACGTCTTA,-0.158
AAAGTATG,-0.109
AGCGCCCA,0.0592
GATCAGAC,-0.075
CTACACAC,-0.0939
CTCGCAAC,-0.0807
AAACTATC,-0.043
CGGTATCC,0.29
CCCGCACC,0.215

# Sample 2 — method: universal PBM; molecule type: double-stranded DNA, one strand shown; sample: in vitro; concentration: 600 nM; direction: higher = stronger binding
# Target: Sal-like protein 4, full length isoform A (SALL4, Homo sapiens, UniProt Q9UJQ4, residues 1-1053)
# Chain of UniProt Q9UJQ4 (whole entry, looked up): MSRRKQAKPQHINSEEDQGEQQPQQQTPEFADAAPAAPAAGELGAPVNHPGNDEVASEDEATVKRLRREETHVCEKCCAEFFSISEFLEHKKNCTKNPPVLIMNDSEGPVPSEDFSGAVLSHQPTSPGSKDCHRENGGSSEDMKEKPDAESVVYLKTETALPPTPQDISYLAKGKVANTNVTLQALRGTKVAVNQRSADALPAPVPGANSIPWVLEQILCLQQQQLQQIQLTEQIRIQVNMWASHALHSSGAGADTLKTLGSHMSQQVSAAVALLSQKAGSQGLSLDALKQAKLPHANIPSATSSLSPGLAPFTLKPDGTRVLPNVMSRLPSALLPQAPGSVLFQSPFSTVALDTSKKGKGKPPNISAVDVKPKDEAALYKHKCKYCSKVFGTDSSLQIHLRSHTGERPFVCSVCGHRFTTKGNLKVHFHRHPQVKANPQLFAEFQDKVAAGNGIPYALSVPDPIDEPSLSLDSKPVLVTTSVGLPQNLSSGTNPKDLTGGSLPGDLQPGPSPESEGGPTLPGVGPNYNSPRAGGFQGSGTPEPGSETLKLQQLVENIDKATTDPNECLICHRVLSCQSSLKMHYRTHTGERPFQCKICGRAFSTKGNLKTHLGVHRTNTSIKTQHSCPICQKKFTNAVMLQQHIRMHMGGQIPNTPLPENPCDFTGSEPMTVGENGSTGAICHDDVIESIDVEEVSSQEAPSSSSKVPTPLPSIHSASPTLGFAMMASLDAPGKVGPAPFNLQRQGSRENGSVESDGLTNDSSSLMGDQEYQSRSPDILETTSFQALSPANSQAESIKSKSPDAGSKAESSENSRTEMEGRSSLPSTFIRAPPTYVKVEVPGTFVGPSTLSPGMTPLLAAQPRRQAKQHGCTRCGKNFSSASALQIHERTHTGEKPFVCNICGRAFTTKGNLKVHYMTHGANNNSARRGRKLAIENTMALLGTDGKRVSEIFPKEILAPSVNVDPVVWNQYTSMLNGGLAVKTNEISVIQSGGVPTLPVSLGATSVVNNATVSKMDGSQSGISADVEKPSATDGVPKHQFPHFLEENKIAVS
# Setting: 8-mer, flanks averaged, mean of replicates
Oligonucleotide,E-score
AGCGGTTA,0.0307
ACGATACT,0.113
ATCCGCGC,-0.281
CAGGTTAG,-0.238
GGGTGCCA,-0.0902
CGGGCCCC,-0.437
CGAACACA,-0.041
AAAGAGCC,-0.241
AAGGCCCC,-0.325
TAAAATGA,0.3
ACATTAAA,0.308
AAACCGAA,0.0583
CTGGTGGA,-0.216
AGGGCGTC,-0.245
GTCACCCA,-0.253
AGTAGCAC,-0.165
AATTTTCC,0.203
CATGTAAA,0.0906

# Sample 3 — method: RNA Bind-n-Seq; molecule type: RNA; sample: in vitro; concentration: 365 nM; relative to: no-protein control; direction: higher = stronger binding
# Target: RNA binding protein fox-1 homolog 2, RRM domain, GST-SBP tag (RBFOX2, Homo sapiens, UniProt O43251-10, residues 100-194)
# Setting: natural RNA segment, single round, ends assumed
# All sequences stand within: GGGAGUUCUACAGUCCGACGAUC … UGGAAUUCUCGGGUGCCAA
# Target sequence (chain): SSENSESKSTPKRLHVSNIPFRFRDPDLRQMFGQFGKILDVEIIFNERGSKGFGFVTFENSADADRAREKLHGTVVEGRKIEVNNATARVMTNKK
Oligonucleotide,RBNS enrichment (R)
UGCCCUUCAGAGCCAGUAGCAGGCAGGGGUGGGUAGGCACCCUCCUUCCUGUUUUUAUCUAAUAAAAUGCUAACCUGCCCUGAGUUUCCAUUACUGUGGGUGGGGUUCCC,0.394
UCCAUUUUCUCAACAGCUGGAGGCCUCUCAGGCACCAUCGCUCGAGUGGCUGCUGGCUCUCAAGCUGCCAUUUUUUCCUGAUGCAAAAAAUGAAAGCAGGCAAAAGUGCU,0.225
AAGCUCUCCCCAGCUAGUGAAAACCUGAACAUCGUUAGAGUCACCGACUUUACAUGCUCAGAAUGCUGUGCACAAGCCACGCUUUCUAAAGCCCAUCCAGAUUAGUUUAG,0.444
CCCUGCACUCCGCCUUAGUCCUGGGGCCGGCGACACAGUGGGGGCUCCUCACUUGCUGCAGUGUCAUAGCAAUAAAAUGUGAUUCUUGGGGUCCCCCCAGGGAGCUGCCC,0.422
AAACAGUGUGGCAUGCCAACAUCUCUAUAGUGAUUUUUACACGUGAUGUAUUCGGUGUAGCUGAGGUCACUUUGGAAGUCUGUGGCUGUUCCAUGUCCUAGGCAAGCCAC,9.26
GAGAAACUUUUUUCCUACAAAGACCUUGCUUGAAACCACAAAAGUUUUGCUGGCACGAAAGAAACUAGAUGGAAAUAUAUGUAAUUCUCUCAUAUUUAAAAACGUAAUCU,0.418
AUGAAAUGACUUGAGGAUUCCAAUUUCUUAUUAGCUUAAGAUGUCACUUAAAAGCUGACAGCCCUCAUCUGUCUCAUUGGCUACAUAAGAGCUGCAGAAGAUCCAUCAAU,0.372
UGAUUUUAGUUUUUCAUUUCUCAAAUAGGAAUACUACCUUUGAAUUCAAUAAAAUUCACUGCAGGAUGACCAGUUACAUGCUGUUUGUUCCAUAUGCUUUGUGUGUUGCU,0.52
UGUGAUACAUUCCCUGGCUGAGGACUCGGGGCUGGCCUGGGCAUUUGCCUGGACUGCUGGAAACACUAGGUCUCCUGUGCGUGUGUGGAAAGGUAAUAGUGGCACAAUGU,0.562
UCCUGCCAUACAUCUACAAAGUGGGUUUUGAGUGAGGGCAGGUGGCCCAGUGGCUUUGGGUGGCGACUGAGCUGGUCCCACGAGGGGAGGAGGGUUUAUAUACCCCAUGA,1.13
ACCCUCGAGACUCUGCAAAACAUAGUAGCUGCUGCUGCUUGUGUGGCGUGACCCUCUUGUGAAGUACUGGUUCUGUUUCCUGAUUCCUUUUGCACUCCUCCAUCCCACCU,0.221
UGUCAACUCGUAUGCUGGGGGCAGGUGGAGUGGGGGAGCGGUGCCCAUCUGCCUCUGAUGUUCAGUCAUUCCUGGUUUUAUCUCUGAACUUCCCUGGCCACCCUCCUCUG,0.859

# Sample 4 — method: RNA Bind-n-Seq; molecule type: RNA; sample: in vitro; concentration: not given; relative to: input RNA pool; direction: higher = stronger binding
# Target: RING finger protein unkempt homolog, zinc fingers 1-6, GST-SBP tag (UNK, Homo sapiens, UniProt Q9C0B0, residues 30-357)
# Setting: RNA with constant flanks, human and mouse sites, ends assumed
# All sequences stand within: GGGAGUUCUACAGUCCGACGAUC … CAACAGAGGAUUGAGCAUCA
# Target sequence (chain): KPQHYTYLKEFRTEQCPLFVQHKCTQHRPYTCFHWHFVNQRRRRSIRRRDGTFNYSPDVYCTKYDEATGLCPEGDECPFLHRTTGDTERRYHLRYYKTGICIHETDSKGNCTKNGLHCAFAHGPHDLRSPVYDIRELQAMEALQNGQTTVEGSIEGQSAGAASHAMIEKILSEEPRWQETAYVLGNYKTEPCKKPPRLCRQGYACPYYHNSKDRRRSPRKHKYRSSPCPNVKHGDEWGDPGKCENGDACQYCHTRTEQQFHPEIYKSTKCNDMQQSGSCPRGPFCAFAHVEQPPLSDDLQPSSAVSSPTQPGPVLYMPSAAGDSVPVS
Oligonucleotide,bound/input enrichment
UACCCCAGUGAAGAAGCCAAAGAGGAGCUGGCCAAGAAAUGCAGCAUCACAGUAUCACAGGUAUCCAACUGGUUUGGCAACAAACGAAUCAGGUACAAGAAGAACAUCGGCAAAUUUCAA,0.201 ratio
AAUGGCAGUCAGUCAGAAAGUUCAGUGUCUACUCCAUCUGCGUCAUUUGAACCUAACAACACUUGUGAAAACUCUCAGUCCAGAAAUGCAGAGCUUUGUGAGAUACCACCCACUUCUGAU,0.146 ratio
GAGGAUAAUCCAUUUGCAGAGUACAUGUGGAUGGAAAAUGAAGAGGAAUUCAACAGACAAAUAGAAGAGGAGUUGUGGGAAGAAGAAUUUAUUGAACGCUGUUUCCAAGAAAUGCUGGAA,0.954 ratio
CUUUAAAACUUUGGUUGUCAACUUUCAUUAACCUUAAAUACACUGAAUGGAAUCAACACAAGUGAGACAUCUCAGACCUUUCCUGAUGCUACGGCUUUUGUUUUUCCAGUGGCCAAAAUA,0.213 ratio
GUUUAGGCCUUGCCAGUUUUCCGAAGUCUCUGAUUAGUUGACAGUAUUAACACUAAAUUGCAGUUUACAGUAUUUCUACAUUACAGCCAUAUGUAACAUCAAGCCAUCGAUUGUGUACUU,0.405 ratio
UUGUGUGUGAAAGUAGAUAGGACUCCGAAAGGCACCCAGGGUGUUGUCACAAAUUUUGAAAUUUUCCGAAUGAGGGAGAAACAGGUACCUGUGGAUGUGGUCGAGAUGAAAGAAACCAUC,0.283 ratio
ACUUCUCCAUCCUGGACGAGGCGCAAGUGCUGGCGAGCCAGAUGCGGAGGCUGGCUGCCGAGGAGCUGGGGGUGGUCACCAUGCAGAGGAUCUUCAAUUCGUUGGUUUACACAGAGAAGA,0.0753 ratio
AUCUGUAAUUUCAGUCUCUUUUUUUCUGAAAUACAUUAUAUUGUAUGUUUGAGAUAAUUCUAGUACAAAGUAUAAUAAACUAGAUGUAUAAUAAACCCUUUAAAUCAUUGCUAAGUGUAU,0.986 ratio
AUGGCUUGGAUGAUAUUAAGGACCGUUCGACACUUGGAGAGAAAUUGGGAGGCAAUGUAGUAGUUUCACUUGAAGGAAAACCAUUAUAAAAUGACAGUCAAGUGCCAUCUGGAUCUUAAG,0.818 ratio
AUGAUAUGUCCAUAAUGGCCUGGACAGAGGGUGGUGGCUAGUGUCUACGUCAUUUCUUGACCCCAGAUCUGGCGGGAGCUCUUCUCACCUCUGCAUGCACUUAACUUUGGCAUUGGUGGU,0.254 ratio
AGCAGCAUGGGGAGGACACGAGGAUAUUGUACUGAAUUUGCUACAACAUGGCGCUGAAGUGAACAAAGCUGAUAAUGAAGGUAGAACUGCUUUGAUAGCAGCAGCAUACAUGGGACAUAG,0.768 ratio

# Sample 5 — method: aptamer microarray, sandwich; molecule type: DNA with 2'F-ANA; sample: in vitro; concentration: 200 nM; together with: Cy3 exosite-II aptamer, 400 nM; direction: higher = stronger binding; oligonucleotide: GGTTGGTGTGGTTGG
# Target: Prothrombin, mature alpha-thrombin (F2, Homo sapiens, UniProt P00734)
# Setting: whole 15-mer aptamer, many near background
Modification,mean fluorescence intensity [a.u.]
2'F-ANA at 2 3 4 5 6 10 11 12 13 14,146
2'F-ANA at 1 4 6 9 10 11 12 15,55.2
2'F-ANA at 4 7 8 9 13 15,189
2'F-ANA at 3 4 5 6 7 9 10 14 15,52.9
2'F-ANA at 3 4 5 11 12 14 15,54.7
2'F-ANA at 1 4 5 6 7 8 10 11 13 15,51.7
2'F-ANA at 2 8 9 12 13 15,510
2'F-ANA at 1 2 3 5 8 10 11 12 15,66.8
2'F-ANA at 1 2 4 6 7 8 9 10 12 13 14,49.5
2'F-ANA at 1 2 3 4 9 11 13 14 15,55.3
2'F-ANA at 2 3 4 6 7 8 10 12,294
2'F-ANA at 7 8 11 12 14,264
2'F-ANA at 2 4 6 7 9 10 11 12 13 14 15,62.5
2'F-ANA at 3 4 5 6 7 8 9 11 13 14 15,52.5
2'F-ANA at 2 6 7 8 10,140
2'F-ANA at 3 7 9 10 11 15,495
2'F-ANA at 3 5 6 7 8 9 12 13 15,169
2'F-ANA at 1 6 7 11 12 13 14,202
2'F-ANA at 1 2 3 4 6 7 8 9 10 11 12 15,91.2
2'F-ANA at 2 4 5 6 7 8 9 10 12 13 14,69.7
2'F-ANA at 1 2 3 4 7 8 9 15,206
2'F-ANA at 1 3 4 7 10 13 14 15,245
2'F-ANA at 1 3 4 5,57.7
2'F-ANA at 4 5 7 10 11 12 15,49.8
2'F-ANA at 1 2 3 4 6 12 14 15,88.1

# Some of these lines once more (sample 5):
Modification,mean fluorescence intensity [a.u.]
2'F-ANA at 1 2 3 5 8 10 11 12 15,66.8
2'F-ANA at 1 2 4 6 7 8 9 10 12 13 14,49.5
2'F-ANA at 1 2 3 4 9 11 13 14 15,55.3
2'F-ANA at 2 3 4 6 7 8 10 12,294
2'F-ANA at 7 8 11 12 14,264
2'F-ANA at 2 4 6 7 9 10 11 12 13 14 15,62.5
2'F-ANA at 3 4 5 6 7 8 9 11 13 14 15,52.5
2'F-ANA at 2 6 7 8 10,140
